{"data": "Assay results of several laboratories", "note": "Every numbered part comes from another study and shows a few of its results, in no order. Several values in a cell are separate wells, animals, samples, runs or records. Positions count from the first letter of the parent shown."}
{"data": "Set 1", "target": "UDP-N-acetylglucosamine--peptide N-acetylglucosaminyltransferase 110 kDa subunit (OGT, Homo sapiens, UniProt O15294)", "read-out": "binding", "technique": "phage display NGS", "form": "peptide", "concentration": "concentration not given", "reference": "input library", "UniProt O15294, sequence (whole entry, looked up)": "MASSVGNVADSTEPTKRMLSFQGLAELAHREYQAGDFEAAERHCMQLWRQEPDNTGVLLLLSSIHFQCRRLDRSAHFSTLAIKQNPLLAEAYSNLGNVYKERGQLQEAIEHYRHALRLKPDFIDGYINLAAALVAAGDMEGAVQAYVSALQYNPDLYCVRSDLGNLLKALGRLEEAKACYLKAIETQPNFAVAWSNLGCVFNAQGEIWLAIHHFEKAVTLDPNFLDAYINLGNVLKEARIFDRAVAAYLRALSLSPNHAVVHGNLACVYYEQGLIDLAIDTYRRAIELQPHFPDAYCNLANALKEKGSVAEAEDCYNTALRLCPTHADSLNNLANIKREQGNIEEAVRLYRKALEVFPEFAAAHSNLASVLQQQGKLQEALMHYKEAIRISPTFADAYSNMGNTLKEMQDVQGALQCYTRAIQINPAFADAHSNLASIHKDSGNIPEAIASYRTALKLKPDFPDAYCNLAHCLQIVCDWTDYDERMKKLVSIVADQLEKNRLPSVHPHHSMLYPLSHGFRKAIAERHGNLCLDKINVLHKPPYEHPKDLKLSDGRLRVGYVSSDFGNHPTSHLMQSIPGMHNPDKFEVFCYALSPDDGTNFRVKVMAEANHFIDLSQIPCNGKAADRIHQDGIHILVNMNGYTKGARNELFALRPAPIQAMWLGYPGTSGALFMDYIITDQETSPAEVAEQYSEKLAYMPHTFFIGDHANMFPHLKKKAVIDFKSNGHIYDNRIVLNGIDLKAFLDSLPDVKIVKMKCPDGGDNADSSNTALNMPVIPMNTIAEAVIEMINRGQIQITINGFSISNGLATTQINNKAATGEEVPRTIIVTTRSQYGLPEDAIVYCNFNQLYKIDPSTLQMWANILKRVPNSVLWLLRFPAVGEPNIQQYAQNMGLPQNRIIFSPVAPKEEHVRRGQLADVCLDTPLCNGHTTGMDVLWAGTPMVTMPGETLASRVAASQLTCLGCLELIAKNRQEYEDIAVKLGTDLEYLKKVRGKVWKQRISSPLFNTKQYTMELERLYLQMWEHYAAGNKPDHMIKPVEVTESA"}
{"Molecule": "IVTGRHPHTTQHYTH", "enrichment fold change": 5.31}
{"Molecule": "QFWPMVTHNAHITGG", "enrichment fold change": 3.04}
{"Molecule": "YTSHYPVHVHHYPQ", "enrichment fold change": 12.5}
{"Molecule": "RHPHEHDLHDVITHA", "enrichment fold change": 9.06}
{"Molecule": "NPPHSVHHTQIHRHN", "enrichment fold change": 6.99}
{"Molecule": "QRYGHTHMDHFSTSI", "enrichment fold change": 3.25}
{"Molecule": "HIHWTGESPSPHWVH", "enrichment fold change": 2.49}
{"Molecule": "HQIEWHHTSSNYFH", "enrichment fold change": 4.02}
{"data": "Set 2", "target": "CCNB2, cyclin fold, Cln2 fusion (human)", "technique": "yeast growth competition, sequencing", "matrix": "yeast", "setting": "weak parent motif", "reference": "not given", "reading": "higher = stronger binding", "parent": "viral docking peptide; PTARRRLLHDLDT"}
{"Substitution": "PTARRRLLHDLDA [T13A]", "normalised enrichment score": 0.429}
{"Substitution": "PTARAAAAHDLDT [R5A R6A L7A L8A]", "normalised enrichment score": -0.0537}
{"Substitution": "PTAARRLLHDLDT [R4A]", "normalised enrichment score": -0.059}
{"Substitution": "PTARRRLLHDLAT [D12A]", "normalised enrichment score": -0.00489}
{"Substitution": "PTARKRLFHDLDT [R5K L8F]", "normalised enrichment score": 0.343}
{"Substitution": "PTARARLLHDLDT [R5A]", "normalised enrichment score": 0.272}
{"Substitution": "PTARRRLLHDADT [L11A]", "normalised enrichment score": 0.32}
{"Substitution": "PTARRRLAHDLDT [L8A]", "normalised enrichment score": -0.222}
{"data": "Set 3", "target": "vanadate, free oxyanion", "technique": "microfluidic competitive inhibition", "matrix": "in vitro, cell-free expressed", "concentration": "not given", "setting": "derived from inhibition constants, unchanged parent 676 nM", "reading": "lower = stronger binding", "parent": "PafA, mature enzyme, eGFP fusion (Elizabethkingia meningoseptica, UniProt Q9KJX5); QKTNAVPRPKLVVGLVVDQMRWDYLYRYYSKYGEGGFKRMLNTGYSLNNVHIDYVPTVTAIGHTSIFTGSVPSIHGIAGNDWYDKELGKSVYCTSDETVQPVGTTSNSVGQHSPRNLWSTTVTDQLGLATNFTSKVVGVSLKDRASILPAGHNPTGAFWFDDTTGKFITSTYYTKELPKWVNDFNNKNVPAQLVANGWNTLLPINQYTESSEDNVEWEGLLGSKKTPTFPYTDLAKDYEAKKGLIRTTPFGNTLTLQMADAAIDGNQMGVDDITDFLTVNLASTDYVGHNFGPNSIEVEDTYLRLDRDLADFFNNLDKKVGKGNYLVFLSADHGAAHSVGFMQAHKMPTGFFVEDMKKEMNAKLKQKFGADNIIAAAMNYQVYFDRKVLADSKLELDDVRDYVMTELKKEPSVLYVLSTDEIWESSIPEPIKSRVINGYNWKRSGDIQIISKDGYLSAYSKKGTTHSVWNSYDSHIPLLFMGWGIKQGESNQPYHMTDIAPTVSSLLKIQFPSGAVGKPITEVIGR"}
{"Substitution": "K187G", "oxyanion analog dissociation constant": "642 nM"}
{"Substitution": "Q100G", "oxyanion analog dissociation constant": "1.17 µM"}
{"Substitution": "E421V", "oxyanion analog dissociation constant": "695 nM"}
{"Substitution": "S134G", "oxyanion analog dissociation constant": "682 nM"}
{"Substitution": "L234V", "oxyanion analog dissociation constant": "633 nM"}
{"Substitution": "D237G", "oxyanion analog dissociation constant": "327 nM"}
{"Substitution": "A235G", "oxyanion analog dissociation constant": "973 nM"}
{"Substitution": "V270A", "oxyanion analog dissociation constant": "716 nM"}
{"data": "Further values, each from its own experiment"}
{"SMILES": "O=c1[nH]c2ccccc2n1C1CCN(CCCC(c2ccc(F)cc2)c2ccc(F)cc2)CC1", "cell line": "mouse MPNST tumor cells", "test": "high-content nuclear imaging, refers to: cell number", "setting": "10 µM, 12 h, mean of 2 replicates", "scale": "reference: plate mean, higher = more cells", "quantity": "nuclei count", "result": "-0.427 z-score and -7.05 z-score"}
